{"data": "Published values collected from several papers", "note": "Each numbered part is a random draw from the data of one study; scales do not carry over between parts. Values joined by “and” are separate records of one study, mostly repeats; a detail may differ.", "chain of UniProt Q9P0L2 (whole entry, looked up)": "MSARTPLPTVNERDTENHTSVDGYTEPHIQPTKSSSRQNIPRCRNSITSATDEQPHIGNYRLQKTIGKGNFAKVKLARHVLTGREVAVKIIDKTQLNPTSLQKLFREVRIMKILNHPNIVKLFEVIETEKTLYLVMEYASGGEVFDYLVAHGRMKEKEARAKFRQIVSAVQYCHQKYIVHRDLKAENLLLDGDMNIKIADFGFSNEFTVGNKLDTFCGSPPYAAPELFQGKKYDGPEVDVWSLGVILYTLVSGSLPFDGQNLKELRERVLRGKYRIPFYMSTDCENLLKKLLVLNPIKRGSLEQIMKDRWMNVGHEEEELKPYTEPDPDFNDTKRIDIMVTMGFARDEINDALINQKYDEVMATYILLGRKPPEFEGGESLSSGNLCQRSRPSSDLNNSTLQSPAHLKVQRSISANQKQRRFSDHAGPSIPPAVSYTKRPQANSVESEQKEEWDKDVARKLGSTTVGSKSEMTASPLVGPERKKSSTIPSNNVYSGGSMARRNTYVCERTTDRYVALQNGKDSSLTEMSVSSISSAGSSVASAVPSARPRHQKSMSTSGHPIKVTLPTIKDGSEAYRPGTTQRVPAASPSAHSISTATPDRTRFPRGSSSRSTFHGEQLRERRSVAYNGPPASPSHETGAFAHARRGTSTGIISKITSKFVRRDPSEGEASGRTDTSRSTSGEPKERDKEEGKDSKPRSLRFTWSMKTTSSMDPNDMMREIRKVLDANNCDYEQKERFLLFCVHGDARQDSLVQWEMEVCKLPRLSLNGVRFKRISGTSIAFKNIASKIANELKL", "chain of UniProt P07332 (whole entry, looked up)": "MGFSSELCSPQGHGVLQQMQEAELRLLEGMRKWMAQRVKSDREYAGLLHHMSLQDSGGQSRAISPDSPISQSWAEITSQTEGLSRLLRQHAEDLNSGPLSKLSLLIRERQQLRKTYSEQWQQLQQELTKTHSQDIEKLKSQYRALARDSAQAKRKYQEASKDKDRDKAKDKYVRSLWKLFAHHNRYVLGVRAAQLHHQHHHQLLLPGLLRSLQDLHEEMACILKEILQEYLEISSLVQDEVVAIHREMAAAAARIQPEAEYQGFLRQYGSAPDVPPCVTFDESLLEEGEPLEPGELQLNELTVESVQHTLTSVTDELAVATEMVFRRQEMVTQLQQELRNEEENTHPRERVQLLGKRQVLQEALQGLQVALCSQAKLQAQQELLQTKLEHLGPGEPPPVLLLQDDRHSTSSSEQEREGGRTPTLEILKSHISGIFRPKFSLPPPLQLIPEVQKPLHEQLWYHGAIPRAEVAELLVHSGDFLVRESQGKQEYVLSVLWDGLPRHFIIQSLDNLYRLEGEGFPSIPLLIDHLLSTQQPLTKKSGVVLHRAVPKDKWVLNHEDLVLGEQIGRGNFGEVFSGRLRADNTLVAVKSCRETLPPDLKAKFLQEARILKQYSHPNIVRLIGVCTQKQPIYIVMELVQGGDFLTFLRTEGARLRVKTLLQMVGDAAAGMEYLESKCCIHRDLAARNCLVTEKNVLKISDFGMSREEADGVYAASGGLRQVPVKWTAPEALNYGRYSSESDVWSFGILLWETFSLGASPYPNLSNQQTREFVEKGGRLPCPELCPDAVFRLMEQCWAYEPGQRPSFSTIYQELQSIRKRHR", "chain of UniProt O60674 (whole entry, looked up)": "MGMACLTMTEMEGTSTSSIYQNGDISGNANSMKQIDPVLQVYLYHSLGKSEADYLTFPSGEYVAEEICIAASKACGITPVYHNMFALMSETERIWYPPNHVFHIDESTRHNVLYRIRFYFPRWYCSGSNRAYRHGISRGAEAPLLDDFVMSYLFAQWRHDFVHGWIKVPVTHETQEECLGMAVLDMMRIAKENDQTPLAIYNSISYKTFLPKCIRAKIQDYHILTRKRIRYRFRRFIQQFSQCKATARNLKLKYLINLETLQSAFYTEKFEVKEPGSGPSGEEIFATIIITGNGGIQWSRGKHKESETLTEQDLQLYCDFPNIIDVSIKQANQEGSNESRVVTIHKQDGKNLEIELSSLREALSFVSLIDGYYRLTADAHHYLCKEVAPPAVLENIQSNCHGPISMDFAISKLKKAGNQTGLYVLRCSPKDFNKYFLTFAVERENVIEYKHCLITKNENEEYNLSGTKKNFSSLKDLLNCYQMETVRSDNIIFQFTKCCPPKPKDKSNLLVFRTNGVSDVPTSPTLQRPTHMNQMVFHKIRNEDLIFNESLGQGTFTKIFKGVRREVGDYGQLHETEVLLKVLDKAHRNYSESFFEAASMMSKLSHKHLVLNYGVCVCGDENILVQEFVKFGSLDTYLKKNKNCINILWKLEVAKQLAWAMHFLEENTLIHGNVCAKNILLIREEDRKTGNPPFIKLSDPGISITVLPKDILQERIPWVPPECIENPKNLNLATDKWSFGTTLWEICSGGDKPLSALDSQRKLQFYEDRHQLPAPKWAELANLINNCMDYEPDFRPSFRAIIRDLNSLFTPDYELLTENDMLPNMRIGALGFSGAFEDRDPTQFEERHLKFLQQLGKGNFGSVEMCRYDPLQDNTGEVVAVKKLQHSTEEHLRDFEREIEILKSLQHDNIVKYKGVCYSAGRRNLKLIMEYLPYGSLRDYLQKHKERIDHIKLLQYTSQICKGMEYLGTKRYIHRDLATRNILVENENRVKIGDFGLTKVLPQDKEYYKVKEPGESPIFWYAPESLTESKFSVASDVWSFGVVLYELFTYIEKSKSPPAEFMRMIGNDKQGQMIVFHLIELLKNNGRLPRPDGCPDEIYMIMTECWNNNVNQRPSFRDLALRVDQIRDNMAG", "chain of UniProt P11309 (whole entry, looked up)": "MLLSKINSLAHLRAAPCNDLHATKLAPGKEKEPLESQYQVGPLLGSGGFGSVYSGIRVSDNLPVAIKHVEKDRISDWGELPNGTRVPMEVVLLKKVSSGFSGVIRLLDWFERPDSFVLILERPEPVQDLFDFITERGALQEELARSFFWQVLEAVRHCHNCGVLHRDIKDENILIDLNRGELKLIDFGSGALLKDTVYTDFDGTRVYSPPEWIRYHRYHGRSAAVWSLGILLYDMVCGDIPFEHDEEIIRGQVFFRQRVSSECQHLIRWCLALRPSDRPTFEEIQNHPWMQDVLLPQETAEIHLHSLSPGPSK"}
{"data": "Block 1", "cell line": "normal-adjacent organoid sample E", "technique": "CellTiter-Glo", "tested at": "1 µM", "setting": "replicate mean", "relative to": "DMSO"}
{"Structure (SMILES)": "CNc1nc(-c2ccc3c(N)n[nH]c3c2)cc(N2C[C@@H](C(=O)NC3CCCCC3)CC[C@H]2C)n1", "viability [%]": 100}
{"Structure (SMILES)": "Cn1cncc1[C@](O)(COc1ccc(C#N)cc1-c1ccc(OC(F)(F)F)cc1)c1ccc(C#N)cc1", "viability [%]": 34}
{"Structure (SMILES)": "CN(c1ccnc(CNc2nc(Nc3ccc4c(c3)CC(=O)N4)ncc2C(F)(F)F)n1)S(C)(=O)=O", "viability [%]": 117}
{"Structure (SMILES)": "CCC(=O)N[C@H]1CC[C@@H](C(=O)N(C)c2ccc(-c3nc4ccccc4o3)cc2)C1", "viability [%]": 95.1}
{"Structure (SMILES)": "N#CC1(c2ccccn2)CCN(Cc2cc(C(=O)N3CCCC3)c(=O)n3ccccc23)CC1", "viability [%]": 113}
{"Structure (SMILES)": "CN1CCN(Cc2ccc(Nc3ncc(Cl)c(Nc4ccccc4S(=O)(=O)N(C)C)n3)cc2)CC1", "viability [%]": 7.2}
{"Structure (SMILES)": "CN(C)[C@@H]1CCN(c2cc(-c3ccccc3)nc3ccnn23)C1", "viability [%]": 110}
{"Structure (SMILES)": "C[C@H](c1ccnc(Nc2nc3ccc(-c4cc(N(C)C)ncn4)cc3[nH]2)c1)N1CCN(C(=O)CC(F)(F)F)CC1", "viability [%]": 83.3}
{"Structure (SMILES)": "CNC(=O)c1cc(C(=O)N[C@H]2[C@@H]3COC[C@@H]32)cc2c1O[C@@H](CF)[C@@H]2c1ccccc1", "viability [%]": 113}
{"Structure (SMILES)": "C[C@H](c1ccc(F)cc1)N(Cc1ccc(Cl)c(C(=O)O)c1)C(=O)c1cnc2ccccc2c1", "viability [%]": 91.6}
{"Structure (SMILES)": "C[C@@]1(Cc2ccc(C#N)cc2)C(=O)N(c2cc(Cl)cc(Cl)c2)c2ncc(C(=O)NC3(c4nc(C5CCC5)no4)CC3)n21", "viability [%]": 111}
{"Structure (SMILES)": "O=C(NNS(=O)(=O)c1ccccc1)c1cc(-c2ccnnc2)ccc1F", "viability [%]": 120}
{"Structure (SMILES)": "CNC(=O)c1ccccc1Nc1cc(Nc2ccc(N3CCOCC3)cc2OC)ncc1C(F)(F)F", "viability [%]": 25.3}
{"Structure (SMILES)": "Nc1nc(NCc2ccccc2)nc(-c2cccc(CO)c2)n1", "viability [%]": 120}
{"data": "Block 2", "cell line": "mouse MPNST tumor cells", "technique": "high-content immunofluorescence imaging", "item": "nuclear SOX9", "tested at": "10 µM", "time": "12 h", "setting": "mean of 2 replicates", "relative to": "DMSO control", "direction": "higher = more nuclear SOX9"}
{"SMILES": "C[C@H](NC(=O)CCc1nc2ccccc2c(=O)[nH]1)c1ccccc1", "nuclear SOX9 intensity": "110 % of DMSO"}
{"SMILES": "Fc1ccc(C(c2ccc(F)cc2)N2CCN(C/C=C/c3ccccc3)CC2)cc1", "nuclear SOX9 intensity": "132 % of DMSO and 163 % of DMSO"}
{"SMILES": "CO[C@H]1CNC[C@@H](OCC2CCC(F)(F)CC2)[C@@H]1Nc1ncc(-c2cncc(C)c2)c2cc(C)c(=O)[nH]c12", "nuclear SOX9 intensity": "90.5 % of DMSO"}
{"SMILES": "COc1ccccc1OCC(O)CO (centres unmarked)", "nuclear SOX9 intensity": "95.2 % of DMSO"}
{"SMILES": "Nc1ncnc2c1cnn2-c1ccccc1", "nuclear SOX9 intensity": "109 % of DMSO"}
{"data": "Block 3", "Structure (SMILES)": "Clc1ccc(Nc2nnc(Cc3ccncc3)c3ccccc23)cc1", "observed": "enzyme activity", "action": "inhibitor", "tested at": "0.5 µM", "relative to": "control"}
{"target": "PIM1 (Homo sapiens, UniProt P11309)", "remaining activity": "102%"}
{"target": "MARK1 (Homo sapiens, UniProt Q9P0L2)", "remaining activity": "124%"}
{"target": "FES (Homo sapiens, UniProt P07332)", "remaining activity": "94.7%"}
{"target": "JAK2 (Homo sapiens, UniProt O60674)", "remaining activity": "106%"}
{"data": "Block 4", "cell line": "A-375", "tested at": "100 µM", "time": "36 h"}
{"Compound": "CCN1CCN(C(=O)N[C@@H](C(=O)N[C@@H]2C(=O)N3[C@@H]2SC(C)(C)[C@@H]3C(=O)O)c2ccccc2)C(=O)C1=O", "viability": "102%"}
{"Compound": "O=c1ccc2cc3ccoc3cc2o1", "viability": "87.3%"}
{"Compound": "COc1ccc(OC)c(C(O)CNC(=O)CN)c1 (centres unmarked)", "viability": "121%"}
{"Compound": "CC1=CC(=O)c2ccccc2C1=O", "viability": "-0.112%"}
{"Compound": "Clc1ccc(C(Cn2ccnc2)OCc2ccsc2Cl)c(Cl)c1 (centres unmarked)", "viability": "-2.97%"}
{"Compound": "Cc1ccc(Cl)c(Nc2ccccc2C(=O)O)c1Cl", "viability": "35.3%"}
{"Compound": "NNc1nncc2ccccc12", "viability": "103%"}
{"Compound": "CCC(=O)OCC(=O)[C@@]1(OC(=O)CC)[C@@H](C)C[C@H]2[C@@H]3CCC4=CC(=O)C=C[C@]4(C)[C@@]3(F)[C@@H](O)C[C@@]21C", "viability": "62.4%"}
{"Compound": "CCNC(=O)[C@@H]1CCCN1C(=O)[C@H](CCCNC(=N)N)NC(=O)[C@H](CC(C)C)NC(=O)[C@@H](C)NC(=O)[C@H](Cc1ccc(O)cc1)NC(=O)[C@H](CO)NC(=O)[C@H](Cc1c[nH]c2ccccc12)NC(=O)[C@H](Cc1c[nH]cn1)NC(=O)[C@@H]1CCC(=O)N1", "viability": "92.5%"}
{"note": "Excerpt of the above (block 2):"}
{"SMILES": "Nc1ncnc2c1cnn2-c1ccccc1", "nuclear SOX9 intensity": "109 % of DMSO"}
{"SMILES": "C[C@H](NC(=O)CCc1nc2ccccc2c(=O)[nH]1)c1ccccc1", "nuclear SOX9 intensity": "110 % of DMSO"}
{"SMILES": "Fc1ccc(C(c2ccc(F)cc2)N2CCN(C/C=C/c3ccccc3)CC2)cc1", "nuclear SOX9 intensity": "132 % of DMSO and 163 % of DMSO"}
